{"data": "Assay results of several laboratories", "note": "Parts stem from different laboratories: compare values within a part only."}
{"data": "Block 1", "target": "RNA binding protein fox-1 homolog 2, RRM domain, GST-SBP tag (RBFOX2, Homo sapiens, UniProt O43251-10, residues 100-194)", "method": "RNA Bind-n-Seq", "molecule type": "RNA", "sample": "in vitro", "concentration": "365 nM", "setting": "natural RNA segment, single round, ends assumed", "relative to": "no-protein control", "direction": "higher = stronger binding", "constant ends, left off below": "GGGAGUUCUACAGUCCGACGAUC … UGGAAUUCUCGGGUGCCAA", "Construct (chain)": "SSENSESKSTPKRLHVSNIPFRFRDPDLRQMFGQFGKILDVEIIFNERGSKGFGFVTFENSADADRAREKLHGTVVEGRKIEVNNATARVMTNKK"}
{"Oligonucleotide": "GUUUGGGAGACCCAUGGAAGAAAACCUUCGCCAUCUCCAUUGUUUUACCCCCAGCUCAAGAUGGACAGGGUUCUUCUGGUCAUCUCCCUUCCACCUCUUCCACCCUCAUG", "RBNS enrichment (R)": 0.267}
{"Oligonucleotide": "GUAAUUUUCAAAGAAAGUGAUGUUUGUUAAAUGGGGCGAAAUAAGAAGUUAAAUUUGAAAGUGAAUGUGUUCAAAUGAAAGGCUUGACAAUUGCAUCUGUUACUAGUUUU", "RBNS enrichment (R)": 6.7}
{"Oligonucleotide": "GUGACACCCUGGACCCUGGAUGCUGCUUUCUAAAGUGCACCUGAUCCAUGCAGUUUUAUGUCUUCAUAUAACUGGUAUCUUGUGAGUUUGCAAGCAAUGGGAUGAGCAAG", "RBNS enrichment (R)": 0.666}
{"Oligonucleotide": "GAAAAUAACCCCUGAUUGGUAGGAUCAUAGUUCUAAAUGGAAAUGUUUGUAAUUCUUUGAUGUGCUACAAACCUGAAACUGGUAAGACAAGCACAAAGCAACGUGCAAUA", "RBNS enrichment (R)": 0.314}
{"Oligonucleotide": "ACAGUAACCACAUGCGGCUGUUUAAAGUUAAGCCAAUUAAAAUCACAUAAGAUUAAAAAUUCCUUCCUCAGUUGCACUAACCACGUUUCUAGAGGCGUCACUGUAUGUAG", "RBNS enrichment (R)": 0.558}
{"Oligonucleotide": "CAAAGGUCGUCUGUCUGCUUUUGAUUGUCUACAUCACAGCAAUCCCUGGGAAUUUCUAUCCAUUUUAAAUGCUGCCGCUUUCAUCUGUUUAGCCAGCACACCCAAUGGUU", "RBNS enrichment (R)": 0.212}
{"Oligonucleotide": "CCAGUAUAAAGACAAAUAAUAUCUAUCGCUCCCAUUAUUUUCAUAAGUAACACAGAUUCCCUGAUUUUUUUUUUUAAAAAACUAAAAAGAUCUCUAAACCUUCUUACAUA", "RBNS enrichment (R)": 0.662}
{"Oligonucleotide": "AUUGUGGAUCUGCUAUCUAACAAUGUCAUGGAAAAGUGGUAUCUUAAAAUUUUAGGACCGAUUUCAGAAAUAGUCAAAGGAGCAACAGAACAUUCAUUGUAUUUUGGUCU", "RBNS enrichment (R)": 0.869}
{"Oligonucleotide": "UUGUGAGAAUUGUCAGUGUAACUAUUACCUACCAGUAUUGUUCAGAGAGAUUGAAACAGAAUAAACGGGCUGUUCUUGAAGAAGCAAAACCAGAAUAUGCAUUACUUUGG", "RBNS enrichment (R)": 0.474}
{"Oligonucleotide": "AAUUGAGGCAUUUUAGUGGACAAUAUCAUAAUUUCUAUCAUGGAAAGUGUAUUUAAUGUCUGUGUCAUGUAUAUGCCAAAAUUUUAAUCCCCUAUAAAUAAAACAUGUGU", "RBNS enrichment (R)": 0.732}
{"data": "Block 2", "target": "Centromere-binding protein 1, full length, N-terminal tag (CBF1, Saccharomyces cerevisiae, UniProt P17106, residues 1-351)", "method": "protein-binding microarray", "molecule type": "double-stranded DNA, one strand shown", "sample": "in vitro", "concentration": "0.8 µM", "setting": "whole 60-bp probe, no competitor", "direction": "higher = stronger binding", "constant ends, left off below": "… GTCTTGATTCGCTTGACGCTGCTG", "UniProt P17106, sequence (whole entry, looked up)": "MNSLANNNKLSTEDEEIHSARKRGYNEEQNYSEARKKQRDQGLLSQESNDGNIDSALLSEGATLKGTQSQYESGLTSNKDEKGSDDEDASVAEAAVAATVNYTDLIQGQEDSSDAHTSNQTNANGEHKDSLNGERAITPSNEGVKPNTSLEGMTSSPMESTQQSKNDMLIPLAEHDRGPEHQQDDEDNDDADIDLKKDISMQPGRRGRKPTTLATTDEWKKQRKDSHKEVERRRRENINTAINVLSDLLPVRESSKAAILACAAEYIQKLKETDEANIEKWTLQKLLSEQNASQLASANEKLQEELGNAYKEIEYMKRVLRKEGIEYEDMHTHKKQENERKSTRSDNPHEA"}
{"Oligonucleotide": "GAATTGCTATAGCGTAACGTGCGTCACTAGTCTTAG", "fluorescence intensity [a.u.]": 576}
{"Oligonucleotide": "GAATAAACTTCCTACCCCGTGTTATTAAGATCATAG", "fluorescence intensity [a.u.]": 690}
{"Oligonucleotide": "CTATTGATTCACCCCCTGATGTTTTTTAGGCCATTC", "fluorescence intensity [a.u.]": 569}
{"Oligonucleotide": "GAATTATATATTACAGGTGATATTTGTATATGATAG", "fluorescence intensity [a.u.]": 658}
{"Oligonucleotide": "CTAAATAAACCACGTCACGTCAAAATATCAGTTTTC", "fluorescence intensity [a.u.]": 643}
{"Oligonucleotide": "GAATATCCAAACCAGCATCAGGAAAAGCCTGAATAG", "fluorescence intensity [a.u.]": 497}
{"Oligonucleotide": "TGTACGAAGCTATGACACCTGAGTATAGTAGTTAGG", "fluorescence intensity [a.u.]": 544}
{"Oligonucleotide": "GAACATATTCATAGGCACATCATGAATTTACTGTAG", "fluorescence intensity [a.u.]": 503}
{"data": "Block 3", "target": "Interferon regulatory factor 7, full length, phosphomimetic (IRF7, Homo sapiens, UniProt Q92985, residues 1-503, S471D/S472D/S475D/S476D/S477D/S483D/S484D/S487D)", "method": "protein-binding microarray", "molecule type": "double-stranded DNA, one strand shown", "sample": "in vitro", "concentration": "2200 nM top", "setting": "60-bp whole probe", "with": "salmon DNA 0.4 mg/ml", "relative to": "random background probes", "direction": "higher = stronger binding", "constant ends, left off below": "GCCTAGCAC … GTCTTGATTCGCTTGACGCTGCTG", "UniProt Q92985, sequence (whole entry, unmodified, looked up)": "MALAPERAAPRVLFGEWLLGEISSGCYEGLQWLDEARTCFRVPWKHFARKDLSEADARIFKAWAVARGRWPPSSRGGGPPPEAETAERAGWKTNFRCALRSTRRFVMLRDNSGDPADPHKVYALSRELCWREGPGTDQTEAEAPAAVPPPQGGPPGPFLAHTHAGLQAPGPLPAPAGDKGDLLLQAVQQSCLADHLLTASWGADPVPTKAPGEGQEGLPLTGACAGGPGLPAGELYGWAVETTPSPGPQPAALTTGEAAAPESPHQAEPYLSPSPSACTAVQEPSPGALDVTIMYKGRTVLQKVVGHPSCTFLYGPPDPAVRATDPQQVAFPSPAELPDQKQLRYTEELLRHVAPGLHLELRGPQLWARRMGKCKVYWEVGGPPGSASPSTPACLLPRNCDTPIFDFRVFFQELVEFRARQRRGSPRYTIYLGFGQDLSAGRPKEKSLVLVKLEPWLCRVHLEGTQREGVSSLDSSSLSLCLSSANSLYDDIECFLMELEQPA"}
{"Oligonucleotide": "GACGACTTCAGTATCGAGACGTGCTAG", "fitted relative affinity": "0.205 z-score"}
{"Oligonucleotide": "TTCATTTTGTTCATCATTGCGTGCTAG", "fitted relative affinity": "1.79 z-score"}
{"Oligonucleotide": "TCATGCTTTCATTTATTACTGTGCTAG", "fitted relative affinity": "2.25 z-score"}
{"Oligonucleotide": "TTAGCTTTCGGACTGGGTTAGTGCTAG", "fitted relative affinity": "3.68 z-score"}
{"Oligonucleotide": "TCATTTTTTTTTTTTTCACTGTGCTAG", "fitted relative affinity": "2.33 z-score"}
{"Oligonucleotide": "TACGGTTTCGGTTCCGGGACGTGCTAG", "fitted relative affinity": "11.9 z-score"}
{"Oligonucleotide": "TTAGGTCTCCTTATCCTGTAGTGCTAG", "fitted relative affinity": "0.896 z-score"}
{"Oligonucleotide": "TCATTTTTCTCCTATTTAACTGTGCTA", "fitted relative affinity": "2.32 z-score"}
{"Oligonucleotide": "TACGGACTGGGACTGGGGACGTGCTAG", "fitted relative affinity": "-0.877 z-score"}
{"Oligonucleotide": "TTAGTTTCCAGTTTCGATTAGTGCTAG", "fitted relative affinity": "10 z-score"}
{"data": "Other studies, line by line"}
{"Substance": "PhoQ, residues 284 288 289 292 302 303 SSTMSV", "target": "PhoP, residues 12 14 15 18 19 SEGLL (Escherichia coli, UniProt P23836)", "assay": "Sort-seq, measured: YFP reporter", "test system": "E. coli", "setting": "PhoQ-PhoP variant library, with: 10 µM Mg2+", "how to read": "relative to: high Mg2+ state, higher = stronger signaling", "endpoint": "fold induction", "value": 7.88}
{"note": "A few entries again (block 2):"}
{"Oligonucleotide": "GAATTATATATTACAGGTGATATTTGTATATGATAG", "fluorescence intensity [a.u.]": 658}
{"Oligonucleotide": "CTAAATAAACCACGTCACGTCAAAATATCAGTTTTC", "fluorescence intensity [a.u.]": 643}
{"Oligonucleotide": "GAATATCCAAACCAGCATCAGGAAAAGCCTGAATAG", "fluorescence intensity [a.u.]": 497}
